{"data": "Measurements pooled from the literature", "FLT3": "Receptor-type tyrosine-protein kinase FLT3 (FLT3, Homo sapiens, UniProt P36888)", "note": "Each line is one published result; not all experiments were run side by side. Several values in a cell are separate wells, animals, samples, runs or records."}
{"SMILES": "COc1cc(OC)c(F)c(/C=C/c2cnc3ccn(S(=O)(=O)c4cn(CCF)cn4)c3n2)c1F", "target": "FLT3", "setting": "10 nM", "endpoint": "inhibition", "value": "0%"}
{"SMILES": "O=C=[N][Ru-4]123([n]4c5ccc(O)cc5c5c6c(c7cc(F)c[n+]1c7c54)C(=O)NC6=O)[S+]1CC[S+]2CC[S+]3CC1 (stereo not shown)", "target": "FLT3", "test": "enzyme activity", "setting": "100 nM, human enzyme, with: 10 µM ATP", "scale": "baseline: untreated", "endpoint": "remaining activity", "value": "32%"}
{"SMILES": "C=CC(=O)Nc1cccc(-c2cnc3[nH]cc(C(=O)NC(C)(C)C)c3n2)c1", "target": "FLT3", "test": "kinase activity", "setting": "0.1 µM", "endpoint": "inhibition", "value": "17% and 13%"}
{"SMILES": "NC(=O)C[C@H]1CCc2sc3ncnc(O[C@H]4CC[C@H](N5CCOCC5)CC4)c3c21", "target": "FLT3", "test": "enzyme activity, inhibitor", "setting": "10 µM", "endpoint": "inhibition", "value": "60%"}
{"SMILES": "C=CC(=O)N1CCCC(n2c(=O)c3ncccc3n(Cc3ccc(Oc4ccccc4)cc3)c2=O)C1 (stereo not shown)", "target": "Receptor-type tyrosine-protein kinase FLT3 (FLT3, Homo sapiens, UniProt P36888, N841I)", "test": "cell-free assay, competition with immobilised ligand", "setting": "1 µM", "endpoint": "remaining binding", "value": "94%"}
{"SMILES": "COCC12C(=O)NC3C4(C(OC)CC1O)C1CC5(O)C(OC)C(O)C(OC(C)=O)(C1C5OC(=O)c1ccccc1)C3(O)C(OC)C24 (stereo not shown)", "target": "FLT3", "test": "kinase activity, inhibitor, ProQinase kinase profiling", "setting": "25 µM", "scale": "baseline: control", "endpoint": "remaining activity", "value": "107%"}
{"SMILES": "CNC(=O)C[C@H](Cc1ccc(C#N)cc1)NC(=O)c1cc(-c2ccc(CN[C@H](C)c3ccc(C)cc3)o2)ccc1Cl", "target": "FLT3", "test": "enzyme activity, inhibitor", "setting": "1 µM", "endpoint": "activity vs control", "value": "103%"}
{"SMILES": "O=c1c(-c2ccc(Cl)c(CN3CCOCC3)c2)coc2cc(O)ccc12", "target": "FLT3", "test": "enzyme activity, inhibitor", "setting": "1 µM", "endpoint": "remaining activity", "value": "101%"}
{"SMILES": "CN1CCN(Cc2ccc(-c3ccc(CO[C@H]4CCC[C@@H]4NC(=O)c4cc(-c5cnn(C)c5)cnc4N)cc3)cc2)CC1", "target": "FLT3", "test": "enzyme activity, inhibitor", "setting": "0.1 µM", "endpoint": "inhibition", "value": "15%"}
{"SMILES": "Cc1cnc2nc1Nc1cccc(c1)COC/C=C/COCc1cc(ccc1OCCN1CCOCC1)N2", "target": "Receptor-type tyrosine-protein kinase FLT3 (FLT3, Homo sapiens, UniProt P36888, ITD)", "test": "cell-free assay", "setting": "0.1 µM", "endpoint": "remaining signal", "value": "7.9%"}
{"SMILES": "CCn1cc(C(=O)O)c(=O)c2c(N)c(F)c(NC3CCCCC3)cc21", "target": "FLT3", "test": "kinase activity", "setting": "0.1 µM, with: ATP at Km", "endpoint": "inhibition", "value": "7.1%"}
{"SMILES": "CN1CC[C@@H](COc2cnc(C#N)cc2-c2ccn3nc(NC(=O)C4CC4)cc3c2)C1", "target": "FLT3", "test": "enzyme activity, inhibitor", "setting": "1 µM", "endpoint": "inhibition", "value": "0%"}
{"SMILES": "COc1c(Cl)cccc1Nc1c(-c2ccncc2C#C[C@@]2(C)CCCN2C(=O)/C=C/CN(C)C)[nH]c2c1C(=O)NCC2", "target": "Receptor-type tyrosine-protein kinase FLT3 (FLT3, Homo sapiens, UniProt P36888, D835H)", "test": "binding, competition with immobilised ligand", "setting": "3 µM", "endpoint": "remaining binding", "value": "100%"}
{"SMILES": "Cc1cccc(O[C@H]2CCC[C@@H](C(C)CNCc3ccncc3)C2)c1 (relative stereo)", "target": "FLT3", "test": "enzyme activity, inhibitor", "setting": "10 µM", "endpoint": "inhibition", "value": "0%"}
{"SMILES": "O=C(Nc1ccc(Oc2ncnc3[nH]cc(-c4ccccc4)c23)c(F)c1)c1c2n(n(-c3cc(F)ccc3F)c1=O)CCCC2", "target": "FLT3", "test": "enzyme activity, inhibitor", "setting": "0.5 µM", "endpoint": "inhibition", "value": "51%"}
{"SMILES": "CC(C)=CC1OC(C)(C)C2C=C3C(=O)C(Cl)=CC(O)C3C3C(O)C4OC4C(=O)C132 (stereo not shown)", "target": "Receptor-type tyrosine-protein kinase FLT3 (FLT3, Homo sapiens, UniProt P36888, K663Q)", "test": "cell-free assay, competition with immobilised ligand", "setting": "10 µM", "endpoint": "remaining binding", "value": "92%"}
